Assay results from different studies.
Lines come from different studies, so protocols differ.
Organism: Staphylococcus aureus

| SMILES | method | strain | sample | time | temperature | together with | MIC |
| --- | --- | --- | --- | --- | --- | --- | --- |
| CC[C@H](C)[C@H](NC(=O)[C@H](CC(C)C)NC(=O)[C@H](CCCCN)NC(=O)[C@@H](NC(=O)[C@H](C)NC(=O)[C@H](CCC(=O)O)NC(=O)[C@H](Cc1c[nH]cn1)NC(=O)[C@@H](NC(=O)[C@H](CCCCN)NC(=O)[C@H](CCC(N)=O)NC(=O)[C@H](Cc1ccccc1)NC(=O)[C@@H](NC(=O)[C@H](CCCCN)NC(=O)[C@H](CCCCN)NC(=O)[C@H](CC(C)C)NC(=O)[C@H](C)N)C(C)C)[C@@H](C)CC)[C@@H](C)CC)C(N)=O | CLSI broth microdilution | ATCC 25923 |  | 18 h | 37 °C |  | 4 µM |
| CC[n+]1c(-c2ccccc2)c2cc(N)ccc2c2ccc(N)cc21 |  | 1199B (NorA overexpressing) |  |  |  |  | 16 µM |
| CC[C@H](C)[C@H](NC(=O)[C@H](Cc1ccc(O)cc1)NC(=O)[C@@H](NC(=O)[C@H](Cc1ccc(O)cc1)NC(=O)[C@@H]1CCCN1C(=O)[C@@H](NC(=O)[C@H](C)N)[C@@H](C)CC)[C@@H](C)CC)C(=O)N[C@@H](Cc1c[nH]c2ccccc12)C(=O)N[C@@H](CCCNC(=N)N)C(=O)N[C@@H](CC(C)C)C(=O)N[C@@H](CC(C)C)C(=O)N[C@@H](CCCNC(=N)N)C(=O)N[C@@H](CCCCN)C(=O)NCC(=O)O | broth microdilution | ATCC 6051 |  | 18 h | 37 °C |  | 1.88 µM |
| CC[C@H](C)[C@H](N)C(=O)N[C@@H](CC(C)C)C(=O)NCC(=O)N[C@@H](CCC(=O)O)C(=O)N[C@H](C(=O)N[C@@H](Cc1c[nH]c2ccccc12)C(=O)N[C@@H](CCCCN)C(=O)NCC(=O)N[C@H](C(=O)N[C@@H](CCCCN)C(=O)N[C@@H](CC(=O)O)C(=O)N[C@H](C(=O)N[C@@H](CC(C)C)C(N)=O)[C@@H](C)CC)[C@@H](C)CC)[C@@H](C)CC | broth microdilution | ATCC 25923 |  |  |  | KCl 4.5 mM | 100 µM |
| CC[C@H](C)[C@H](NC(=O)[C@H](CC(C)C)NC(=O)[C@H](CCCNC(=N)N)NC(=O)[C@@H](N)CCCNC(=N)N)C(=O)N[C@@H](CC(C)C)C(=O)N[C@H](C(=O)N[C@@H](CCCCN)C(=O)N[C@H](C(=O)NCC(=O)N1CCC[C@H]1C(=O)N[C@H](C(=O)N[C@H](C(=O)N[C@@H](Cc1ccc(O)cc1)C(=O)N[C@@H](CCCCN)C(=O)N[C@@H](Cc1ccc(O)cc1)C(=O)N[C@@H](Cc1ccccc1)C(=O)N[C@@H](CCCCN)C(=O)N[C@@H](CCCCN)C(=O)N[C@@H](CCC(N)=O)C(=O)N[C@@H](CC(C)C)C(=O)N[C@@H](CC(C)C)C(=O)N[C@@H](CCCCN)C(=O)N[C@@H](CC(C)C)C(N)=O)[C@@H](C)CC)[C@@H](C)CC)[C@@H](C)O)[C@@H](C)O |  | CCARM 3089, methicillin-resistant | Mueller-Hinton broth | 24 h |  |  | 32 µM |
| CC[C@H](C)[C@H](NC(=O)[C@H](C)NC(=O)[C@H](CCCCN)NC(=O)[C@H](CCCNC(=N)N)NC(=O)[C@H](CCCCN)NC(=O)[C@H](CCCNC(=N)N)NC(=O)[C@H](CCCCN)NC(=O)[C@@H](N)CCCNC(=N)N)C(=O)N[C@@H](CO)C(=O)NCC(=O)N[C@@H](CO)C(=O)N[C@@H](CC(C)C)C(=O)N[C@H](C(=O)N[C@H](C(=O)N[C@@H](CC(C)C)C(=O)N[C@@H](Cc1ccccc1)C(=O)NCC(=O)N[C@@H](Cc1ccc(O)cc1)C(N)=O)[C@@H](C)O)C(C)C | broth microdilution |  |  | 24 h | 37 °C |  | 128 µM |
| CC[C@H](C)[C@H](NC(=O)[C@H](CC(C)C)NC(=O)[C@H](CCCNC(=N)N)NC(=O)[C@@H](N)CCCNC(=N)N)C(=O)N[C@@H](CCCNC(=N)N)C(=O)N[C@H](C(=O)N[C@@H](CC(=O)O)C(=O)N[C@H](C(=O)NCC(=O)N1CCC[C@H]1C(=O)N[C@H](C(=O)N[C@H](C(=O)N[C@@H](Cc1ccc(O)cc1)C(=O)N[C@@H](CC(=O)O)C(=O)N[C@@H](Cc1ccc(O)cc1)C(=O)N[C@@H](Cc1ccccc1)C(=O)N[C@@H](CCCCN)C(=O)N[C@@H](CC(=O)O)C(=O)N[C@@H](CCC(N)=O)C(=O)N[C@@H](CC(C)C)C(=O)N[C@@H](CC(C)C)C(=O)N[C@@H](CCCCN)C(=O)N[C@@H](CCCCN)C(N)=O)[C@@H](C)CC)[C@@H](C)CC)[C@@H](C)O)[C@@H](C)O |  | CCARM 3095, methicillin-resistant | Mueller-Hinton broth | 24 h |  |  | > 128 µM |
| CC(C)C[C@H](NC(=O)CNC(=O)CNC(=O)CNC(=O)CNC(=O)CNC(=O)[C@H](Cc1ccc(O)cc1)NC(=O)[C@H](CC(C)C)NC(=O)[C@@H](NC(=O)CNC(=O)[C@H](Cc1ccc(O)cc1)NC(=O)[C@H](CCCCN)NC(=O)[C@H](CC(N)=O)NC(=O)[C@@H](NC(=O)[C@H](CCCCN)NC(=O)[C@H](Cc1c[nH]c2ccccc12)NC(=O)CN)[C@@H](C)O)[C@@H](C)O)C(=O)N[C@@H](CCCCN)C(=O)N[C@@H](CCCCN)C(=O)N[C@@H](CC(C)C)C(=O)N[C@@H](CC(C)C)C(=O)N[C@@H](CC(C)C)C(=O)N[C@@H](CC(C)C)C(=O)N[C@@H](CC(C)C)C(=O)N[C@@H](CCCCN)C(=O)N[C@@H](CCCCN)C(=O)N[C@@H](CC(C)C)C(=O)NCC(=O)O |  | USA300 MRSA | Mueller-Hinton broth | 18 to 24 h | 37 °C |  | 32 µg/mL |
| CC(C)C[C@@H](NC(=O)CNC(=O)[C@@H](CCCCN)NC(=O)[C@@H](CC(C)C)NC(=O)[C@@H](CCCCN)NC(=O)[C@@H](CCCNC(=N)N)NC(=O)[C@@H](CC(C)C)NC(=O)[C@@H](CC(C)C)NC(=O)[C@@H](CCCNC(=N)N)NC(=O)[C@H](N)CCCNC(=N)N)C(=O)N[C@H](CCCCN)C(=O)N[C@H](CCCCN)C(=O)N[C@H](Cc1ccc(O)cc1)C(=O)N[C@H](CC(C)C)C(=O)N[C@H](Cc1ccc(O)cc1)C(=O)N[C@H](Cc1ccccc1)C(=O)N[C@H](CCCCN)C(=O)N[C@H](CC(C)C)C(=O)N[C@H](CCC(N)=O)C(=O)N[C@H](CC(C)C)C(=O)N[C@H](CC(C)C)C(=O)N[C@H](CCCCN)C(=O)N[C@H](CCCCN)C(N)=O |  | CCARM 3089, methicillin-resistant | Mueller-Hinton broth | 24 h |  |  | 4 µM |
| CCOc1ccc2ccccc2c1C(=O)N[C@@H]1C(=O)N2[C@@H]1SC(C)(C)[C@@H]2C(=O)O |  | CRB, PBP4 deletion |  |  |  |  | 0.5 µg/mL |
| c1ccc(CCOC2CCCc3c2[nH]c2ccccc32)cc1 (stereo not drawn) | broth microdilution | HG001 daptomycin-resistant |  |  |  |  | > 16 µg/mL |
| N=C(N)NCCC[C@H](NC(=O)[C@H](Cc1c[nH]c2ccccc12)NC(=O)[C@@H](N)CCCNC(=N)N)C(=O)N[C@@H](Cc1c[nH]c2ccccc12)C(=O)N[C@@H](CCC(N)=O)C(=O)N[C@@H](Cc1ccccc1)C(=O)N[C@@H](CCC(N)=O)C(=O)N[C@@H](Cc1ccccc1)C(=O)N[C@@H](CCCCN)C(N)=O | broth microdilution, optical density | ATCC 25923 |  |  |  |  | 77 µM |

Repeated from above:
| SMILES | method | strain | sample | time | temperature | together with | MIC |
| --- | --- | --- | --- | --- | --- | --- | --- |
| CC[n+]1c(-c2ccccc2)c2cc(N)ccc2c2ccc(N)cc21 |  | 1199B (NorA overexpressing) |  |  |  |  | 16 µM |
